Results of several laboratories.
A part holds a random share of what one study measured.

Set 1 — technique: protein-binding microarray; molecule type: double-stranded DNA, one strand shown; medium: in vitro; concentration: not given; direction: higher = stronger binding
Target: Transcription factor Sp1 (SP1, Homo sapiens, UniProt P08047, residues 1-785, full length assumed)
UniProt P08047, sequence (whole entry, looked up): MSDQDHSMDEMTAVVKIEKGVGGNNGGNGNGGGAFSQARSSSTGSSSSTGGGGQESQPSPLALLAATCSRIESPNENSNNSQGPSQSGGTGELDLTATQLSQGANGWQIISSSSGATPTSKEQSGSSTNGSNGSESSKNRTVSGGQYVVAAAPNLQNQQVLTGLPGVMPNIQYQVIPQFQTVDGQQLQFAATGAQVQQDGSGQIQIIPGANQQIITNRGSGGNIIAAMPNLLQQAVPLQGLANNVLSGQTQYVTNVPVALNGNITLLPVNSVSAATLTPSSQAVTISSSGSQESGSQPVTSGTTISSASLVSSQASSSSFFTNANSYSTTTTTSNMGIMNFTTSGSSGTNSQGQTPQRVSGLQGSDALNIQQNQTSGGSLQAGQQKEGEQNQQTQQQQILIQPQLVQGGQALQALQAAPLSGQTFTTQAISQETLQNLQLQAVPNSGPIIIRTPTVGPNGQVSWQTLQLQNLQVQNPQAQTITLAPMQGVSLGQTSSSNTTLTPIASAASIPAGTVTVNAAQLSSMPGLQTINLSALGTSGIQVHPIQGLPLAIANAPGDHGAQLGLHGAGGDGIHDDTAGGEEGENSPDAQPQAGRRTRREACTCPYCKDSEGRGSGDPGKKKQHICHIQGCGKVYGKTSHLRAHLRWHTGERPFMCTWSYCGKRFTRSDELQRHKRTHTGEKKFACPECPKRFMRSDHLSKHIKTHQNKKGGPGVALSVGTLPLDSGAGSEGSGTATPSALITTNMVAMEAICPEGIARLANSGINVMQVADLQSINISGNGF
Setting: k-mer, scored over probes, only values ≥0.25
Oligonucleotide | E-score
ATCCCACC | 0.363
AGGGAGGG | 0.447
ACGGTGGG | 0.28

Set 2 — technique: universal PBM; molecule type: double-stranded DNA, one strand shown; medium: in vitro; concentration: not given; direction: higher = stronger binding
Target: Sal-like protein 4, full length isoform B (SALL4, Homo sapiens, UniProt Q9UJQ4-2, residues 1-616)
Setting: 8-mer, flanks averaged, mean of replicates
Oligonucleotide | E-score
AAGGCTCA | -0.0972
ATGGCTTC | 0.11
AACATCAA | 0.247

Set 3 — technique: protein-binding microarray; molecule type: double-stranded DNA, one strand shown; medium: in vitro; concentration: 2200 nM top; setting: 60-bp whole probe; together with: salmon DNA 0.4 mg/ml; relative to: random background probes; direction: higher = stronger binding
Target: Interferon regulatory factor 7, full length, phosphomimetic (IRF7, Homo sapiens, UniProt Q92985, residues 1-503, S471D/S472D/S475D/S476D/S477D/S483D/S484D/S487D)
Construct (chain): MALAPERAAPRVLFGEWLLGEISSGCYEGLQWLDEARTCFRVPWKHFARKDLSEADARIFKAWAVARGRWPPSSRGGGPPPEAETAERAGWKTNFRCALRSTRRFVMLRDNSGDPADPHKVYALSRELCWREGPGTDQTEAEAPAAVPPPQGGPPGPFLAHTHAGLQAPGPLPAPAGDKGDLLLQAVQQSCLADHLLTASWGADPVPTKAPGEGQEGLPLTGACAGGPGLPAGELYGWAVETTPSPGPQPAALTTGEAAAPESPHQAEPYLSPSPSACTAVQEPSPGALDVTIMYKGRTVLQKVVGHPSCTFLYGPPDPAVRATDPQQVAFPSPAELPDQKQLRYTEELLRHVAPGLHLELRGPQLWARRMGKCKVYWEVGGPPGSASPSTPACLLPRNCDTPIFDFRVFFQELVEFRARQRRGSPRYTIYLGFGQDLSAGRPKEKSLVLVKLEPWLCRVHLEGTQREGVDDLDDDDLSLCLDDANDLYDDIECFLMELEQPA
Oligonucleotide | fitted relative affinity [z-score]
GCCTAGCACGAGGGACTGCTTTTCCTGACGTGCTAGGTCTTGATTCGCTTGACGCTGCTG | 0.361
GCCTAGCACGACGGGTCCGGTTTCGGGACGTGCTAGGTCTTGATTCGCTTGACGCTGCTG | 2.84
GCCTAGCACGGGGAGCAGGGTGGCCCTGTGTGCTAGGTCTTGATTCGCTTGACGCTGCTG | -1.59

Single results of other studies
Substance | target | assay | system | setting | scale | quantity | result
PhoQ, residues 284 288 289 292 302 303 SSTMSV | PhoP, residues 12 14 15 18 19 FWNTL (Escherichia coli, UniProt P23836) | Sort-seq, item: YFP reporter | E. coli | PhoQ-PhoP variant library, together with: 10 µM Mg2+ | relative to: high Mg2+ state, higher = stronger signaling | fold induction | 12.1
